Assay results collected from several papers.
Numbered parts are unrelated; each lists some results of a single study.

Sample 1
Target: RNA binding protein fox-1 homolog 2, RRM domain, GST-SBP tag (RBFOX2, Homo sapiens, UniProt O43251-10, residues 100-194)
Technique: RNA Bind-n-Seq
Form: RNA
Medium: in vitro
Concentration: 365 nM
Setting: natural RNA segment, single round, ends assumed
Baseline: no-protein control
Reading: higher = stronger binding
Quantity: RBNS enrichment (R)
Constant ends, left off below: GGGAGUUCUACAGUCCGACGAUC … UGGAAUUCUCGGGUGCCAA
Target sequence (chain): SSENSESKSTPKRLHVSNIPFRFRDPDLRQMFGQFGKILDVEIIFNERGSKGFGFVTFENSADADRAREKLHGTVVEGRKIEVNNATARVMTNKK
CUGGUGCCUGGCCUCUGCACUGUCUGGAGCAUGAUCAGAAUCCACGGUGUAUCCUGGCUUUAGGGGAACCAGGUUCAAGCAGGAAAGGGAUGGACACCAAGAGGUCUUCC: 13.4
UAUUAGCACACCUUGGUUUUGAGAAAAAAACAGGGCUUUGUUUUUUUAAAUAAUUACUAGCAACUCUGUGACUACAUUUAUUUUUAUUUUUUUUAGAGACAGGAUCUUGC: 0.566
UCCAAUGUGAGCUUUUCGUUCUUAUACAUUUAAUUUCGGGUGAUGUUGGCCAGAGGUAUCUGGGAGAACCUACCCUUUCUAGGAGUGGCUCCUGCCUGACUCUUCCUUCG: 0.22
ACUUUCAGACUUCUACCUAUGCUCUUUAGUCCUGUAAAUUGGGUUGUAUUGAUGUCAACUCUGGUGCCUUAGAAGUUAGUAGUUUGGGAACCUAUCUGUAAAAUCAGAUG: 0.742
UUCCGGAUAAUUUUAUAUAUCAAACAUACAGGAUGGAUACAUAGUUGGCAACAGUCUACCUUAUUUAAAGCUUCUACUGGGAUAAACCUCAAUUCCUUUAUUCAGGAAAG: 0.525
CCGUGCUAGUUUCCCGAGUUCAGACUCUCAGCUUUGGUUUGGUUUUGGUUUUGGUUUUUUGUUCUUCAUACUCAAGUGUCUCCGUUGGUCCAGAUACUUCUCUGUGAAAG: 1.03
GGUUCUAACCUAGUGUGUUAAUUUAUCUGAAUUUGGAUUUUUAAAAAGUAAUAAAAAGUUAAAUGUAUUCCUUUGGAUUCCUUAUUUCUUUCCUUUUUGAAACAUGAACC: 0.859
ACUCAGGUCCUCUGGAAUAUUCUCUGCACUCUGUCCAUCUUCUGCUGCAGCUCUGCAUGCAAUUUAGUGGAAAAGAAGAGGAAGUCCAGACUUGAGUUGCCUGGCUACAU: 0.36
UUAUAGUUUUCUUCAAUGUAUUUUUAGUUACUUGGGUCACAAAUGUUCAAUUUCAGCAUAUUUUAGGGUGAGUAAUCAAAAAUGUGAAUUUGCCUUUGAUUUCCUACCAC: 0.782
GCAUGUAUUUACUGUUUGACAGUAAACCCGCUCUGCCUUCUCCACGUCCAAGGCUGUGCAUUCGUCUAAUUAGCGUCGUGUAUGUUUUCCUUUUAUUUUUUCCAAUAAAA: 2.08
AGCAACAGUAACCCUUGCCAAGCAACGACGGGGUAGAAUUUCUAUGUUCCCAAAUUCAGCAGUAACGUCCACAUGGGACCUUUUCACGUGACUCUGUGGGGCUUCUUUCU: 0.31
GUCAUUUAGUUAUGAACGAAAUAAGAAAAGUGAGAACUUCAAAAGCUGUGGUCUUAAAUACUAGACCAGGUUUAGUAGCUCUGUUUUGUCAGUUUUCUAUUUGCCCUCUU: 0.633

Sample 2
Target: Sal-like protein 4, full length isoform B (SALL4, Homo sapiens, UniProt Q9UJQ4-2, residues 1-616)
Technique: universal PBM
Form: double-stranded DNA, one strand shown
Medium: in vitro
Concentration: not given
Setting: 8-mer, flanks averaged, mean of replicates
Reading: higher = stronger binding
Quantity: E-score
GGTGTCGA: -0.195
AAGTTTGA: 0.133
AGCAAGGC: -0.267
GTCAGCGA: -0.214
CGTGAATC: 0.0366
TACGGTAA: 0.223
CCAGCTCA: -0.114
ATCGTGTA: 0.0867
AGCATACA: 0.271
CGAGGGCC: -0.375
TAAACGAA: 0.209
CGTACAAA: 0.126
CCCCTACC: -0.225
GAGCTTAC: -0.0815
AATGCTCT: 0.0751
TTCAGAAA: 0.0957
AATGGGAC: -0.161
ATTCGTAG: 0.0508
AGCTCGCG: -0.122
GTACTAAC: 0.0433
GAGTTTGC: -0.152
AATTTCCA: 0.229

Sample 3
Target: Histone acetyltransferase KAT6A, both winged helices, GST fusion (KAT6A, Homo sapiens, UniProt Q92794, residues 1-181)
Technique: protein binding microarray
Form: double-stranded DNA, one strand shown
Medium: in vitro
Concentration: not given
Setting: 8-mer, flanks averaged, mean of 2 arrays, mostly near background
Baseline: not given
Reading: higher = stronger binding
Quantity: E-score
Target sequence (chain): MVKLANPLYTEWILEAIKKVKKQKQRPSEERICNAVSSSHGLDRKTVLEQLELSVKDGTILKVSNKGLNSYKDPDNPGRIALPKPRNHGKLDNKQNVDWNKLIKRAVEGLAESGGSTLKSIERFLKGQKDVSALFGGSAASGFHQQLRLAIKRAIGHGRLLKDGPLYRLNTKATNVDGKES
CCCTCACC: -0.0986
CTCTCTCC: -0.0706
CTAAGGAA: -0.016
ATGCCATG: -0.0318
CAATGCAA: -0.137
CATCAAGG: -0.222
CCGACGCA: 0.247
CAGTAAAG: -0.085
GAAGACCA: -0.129
GATGACGC: 0.117
GTCTTAAA: 0.0519
GTGCGAGA: -0.18
AGCCAATA: -0.159
GCTTCGTA: -0.00105
AGCCCGTC: 0.218
AAGTGTAT: -0.0092

Sample 4
Target: RING finger protein unkempt homolog, zinc fingers 1-6, GST-SBP tag (UNK, Homo sapiens, UniProt Q9C0B0, residues 30-357)
Technique: RNA Bind-n-Seq
Form: RNA
Medium: in vitro
Concentration: not given
Setting: RNA with constant flanks, human-mouse chimeric sites, ends assumed
Baseline: input RNA pool
Reading: higher = stronger binding
Quantity: bound/input enrichment
Constant ends, left off below: GGGAGUUCUACAGUCCGACGAUC … CAACAGAGGAUUGAGCAUCA
Construct (chain): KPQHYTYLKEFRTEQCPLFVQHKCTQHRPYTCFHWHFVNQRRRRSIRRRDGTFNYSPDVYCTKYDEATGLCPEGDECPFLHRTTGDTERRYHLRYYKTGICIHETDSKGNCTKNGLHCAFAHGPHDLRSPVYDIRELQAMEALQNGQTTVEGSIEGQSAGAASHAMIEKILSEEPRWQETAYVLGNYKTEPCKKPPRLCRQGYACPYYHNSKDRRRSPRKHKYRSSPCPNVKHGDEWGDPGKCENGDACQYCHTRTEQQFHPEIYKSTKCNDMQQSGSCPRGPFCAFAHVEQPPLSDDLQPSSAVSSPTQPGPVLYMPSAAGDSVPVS
CUGAGGAUACCACUGAAGAGACCUUAAAAGAAUCAUUUGAGGGCUCUGUUCGUGCAAGAAUAGUCACUGAUCGGGAAACUGGUUCUUUCCAAAGGGUUGGUUUUGUAAGACUUCAACGUG: 0.175 ratio
UAAAUUAGGGCUGCCGUUUUCUGUUUCUCCCUGGGCUGCGGAAAGCCAGAAGAUUUUAUCUAGCUUAUACAAGGCUGCUGGUGUUCCCUCUUUUUUUCCCUCUCUCUGUUUUUGGCUGCA: 1.2 ratio
AAAAUAGACUAUGGCGAGUACAUGGAUAAAAACAAUGUGAGGCGACAAGCAACAACAAUCAUAGCUGAUAACAUUAUAUUUCUGAGUGACCAGACAAAAGAAAAGGCAUAGAACGGAUGA: 2.61 ratio
CUGAGGAUACCACUGAAGAGACCUUAAAAGAAUCAUUUGAGGGCUCUGUUCGUGCAAAGGAUAGUUAUGAUCGGGAAACUGGUUCUUCCAAAGGGUUUGGUUUUGUAGACUUUAAUAGUG: 0.757 ratio
CUUCGGAAAAAAAAAUUACCUUUUCUGCAUAUUAUAGCCCUCCCAUAGAUCCACGUUCAAGCUCAAAGAGCAAAGGCUUUGCACGGAGCUCAAACAUCUGAUGAAGAAAGAUUUCUGAGA: 0.97 ratio
UGUAGUUUCUUGAUUUAUCAUUUUUCUCUUUUCUUUCAGAUCGUCAGGAAAAGCCUAAAGAUUAGGUUGUAAGAAAAACAGAAGCCAUGUUUCGAAGACCUGUGUUACAGGUAUUUCGUC: 0.468 ratio
CACAGAGCAGCACCUACCCCCUCCUCCUUUCCACACCUGCAAACCCUUUUACUUGGGCUGAAUAUUUAGUGUUAAUUCAUCUCAGCUUUGAGGGCUCCUGUGGCAAAUUCCCGGAUUAAA: 0.669 ratio
GAGCCCAGCCGGCAGUUUGUAAAGGACUCCAUUCGGCUGGUUAAAAGAUGCACCAAACCCGACAGAAAAGAAUUCCAGAAGAUUGCCAUGGCUACAGCUAUAGGAUUUGCUAUAAUGGGA: 0.349 ratio
GGGGAGAAACCUUAUGAGUGUGUGCAGUGUGGGAAAUCCUACAGUCAGAGCUCAAACCUCUUCAGACAUCAGAGACGACACAAUGCAGAAAAACUUCUGAAUGUUGUGAAGGUUUAAGAA: 0.175 ratio
GUGCCCUUCUCGCUGCUGCGGAGCCCGAGCUGGGAACCAUUCCGGGACUGGUACCCUGCACACAGCCGCCUCUUCGAUCAAGCUUUCGGGCUGCCCCGGUUGCCCGAGGAGUGGUCGCAG: 0.0613 ratio
UGGCGCCUGCGCUCCCCGUUUUUAAAUUUAAGUGUAUUUUUAUAAGAUACAUGUAUUUACAAUUGAGCUUUUGUUACUAUAAUACUGAAUGCUACUGGAGAUUAUGAAAAAUGUUUCAAU: 0.629 ratio

For quick reference, copied from above (sample 2):
AGCAAGGC: -0.267
GTCAGCGA: -0.214
CGTGAATC: 0.0366
TACGGTAA: 0.223
CCAGCTCA: -0.114
ATCGTGTA: 0.0867
AGCATACA: 0.271
CGAGGGCC: -0.375
TAAACGAA: 0.209
